Experimental data from different studies.
Every numbered part comes from another study and shows a few of its results, in no order.
Sequence of UniProt P51957 (whole entry, looked up): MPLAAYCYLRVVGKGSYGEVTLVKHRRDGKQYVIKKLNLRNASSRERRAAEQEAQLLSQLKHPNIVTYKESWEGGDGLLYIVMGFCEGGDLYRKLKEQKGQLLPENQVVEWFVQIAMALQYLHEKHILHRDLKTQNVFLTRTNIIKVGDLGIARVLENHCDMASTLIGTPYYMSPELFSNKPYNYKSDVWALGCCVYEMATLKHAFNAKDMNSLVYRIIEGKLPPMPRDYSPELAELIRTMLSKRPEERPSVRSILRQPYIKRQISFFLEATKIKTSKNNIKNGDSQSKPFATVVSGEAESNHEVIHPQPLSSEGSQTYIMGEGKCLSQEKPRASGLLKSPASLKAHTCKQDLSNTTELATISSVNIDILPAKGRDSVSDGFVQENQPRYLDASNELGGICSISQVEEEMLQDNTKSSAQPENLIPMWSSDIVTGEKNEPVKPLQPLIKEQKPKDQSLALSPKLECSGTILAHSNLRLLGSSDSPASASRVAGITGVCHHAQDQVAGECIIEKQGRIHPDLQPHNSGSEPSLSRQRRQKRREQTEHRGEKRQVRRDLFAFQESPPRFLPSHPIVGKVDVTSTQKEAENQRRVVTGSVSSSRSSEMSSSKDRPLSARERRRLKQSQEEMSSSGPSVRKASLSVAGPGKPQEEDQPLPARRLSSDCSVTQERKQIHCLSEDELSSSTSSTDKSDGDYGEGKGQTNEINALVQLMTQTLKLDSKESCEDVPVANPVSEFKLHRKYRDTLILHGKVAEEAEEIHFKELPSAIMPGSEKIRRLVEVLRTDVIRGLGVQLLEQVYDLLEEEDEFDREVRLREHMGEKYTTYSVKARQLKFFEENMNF
Sequence of UniProt P42680 (whole entry, looked up): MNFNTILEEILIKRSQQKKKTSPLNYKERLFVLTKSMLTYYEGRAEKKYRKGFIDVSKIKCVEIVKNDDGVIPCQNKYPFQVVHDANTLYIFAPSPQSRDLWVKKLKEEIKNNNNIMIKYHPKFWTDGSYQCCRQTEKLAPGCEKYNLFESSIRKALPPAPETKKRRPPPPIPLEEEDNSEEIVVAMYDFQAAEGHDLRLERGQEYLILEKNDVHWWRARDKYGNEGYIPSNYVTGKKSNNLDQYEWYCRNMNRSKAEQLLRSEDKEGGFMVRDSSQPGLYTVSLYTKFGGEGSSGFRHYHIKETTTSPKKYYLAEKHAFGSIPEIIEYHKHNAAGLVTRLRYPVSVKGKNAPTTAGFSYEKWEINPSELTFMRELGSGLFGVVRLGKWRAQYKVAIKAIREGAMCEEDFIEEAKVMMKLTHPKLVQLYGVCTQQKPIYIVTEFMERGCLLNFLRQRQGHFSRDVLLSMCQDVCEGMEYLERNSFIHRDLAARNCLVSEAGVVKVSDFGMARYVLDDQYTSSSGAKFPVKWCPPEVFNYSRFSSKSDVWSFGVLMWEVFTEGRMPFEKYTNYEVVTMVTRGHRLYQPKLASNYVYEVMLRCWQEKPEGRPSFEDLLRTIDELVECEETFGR
Sequence of UniProt P17948 (whole entry, looked up): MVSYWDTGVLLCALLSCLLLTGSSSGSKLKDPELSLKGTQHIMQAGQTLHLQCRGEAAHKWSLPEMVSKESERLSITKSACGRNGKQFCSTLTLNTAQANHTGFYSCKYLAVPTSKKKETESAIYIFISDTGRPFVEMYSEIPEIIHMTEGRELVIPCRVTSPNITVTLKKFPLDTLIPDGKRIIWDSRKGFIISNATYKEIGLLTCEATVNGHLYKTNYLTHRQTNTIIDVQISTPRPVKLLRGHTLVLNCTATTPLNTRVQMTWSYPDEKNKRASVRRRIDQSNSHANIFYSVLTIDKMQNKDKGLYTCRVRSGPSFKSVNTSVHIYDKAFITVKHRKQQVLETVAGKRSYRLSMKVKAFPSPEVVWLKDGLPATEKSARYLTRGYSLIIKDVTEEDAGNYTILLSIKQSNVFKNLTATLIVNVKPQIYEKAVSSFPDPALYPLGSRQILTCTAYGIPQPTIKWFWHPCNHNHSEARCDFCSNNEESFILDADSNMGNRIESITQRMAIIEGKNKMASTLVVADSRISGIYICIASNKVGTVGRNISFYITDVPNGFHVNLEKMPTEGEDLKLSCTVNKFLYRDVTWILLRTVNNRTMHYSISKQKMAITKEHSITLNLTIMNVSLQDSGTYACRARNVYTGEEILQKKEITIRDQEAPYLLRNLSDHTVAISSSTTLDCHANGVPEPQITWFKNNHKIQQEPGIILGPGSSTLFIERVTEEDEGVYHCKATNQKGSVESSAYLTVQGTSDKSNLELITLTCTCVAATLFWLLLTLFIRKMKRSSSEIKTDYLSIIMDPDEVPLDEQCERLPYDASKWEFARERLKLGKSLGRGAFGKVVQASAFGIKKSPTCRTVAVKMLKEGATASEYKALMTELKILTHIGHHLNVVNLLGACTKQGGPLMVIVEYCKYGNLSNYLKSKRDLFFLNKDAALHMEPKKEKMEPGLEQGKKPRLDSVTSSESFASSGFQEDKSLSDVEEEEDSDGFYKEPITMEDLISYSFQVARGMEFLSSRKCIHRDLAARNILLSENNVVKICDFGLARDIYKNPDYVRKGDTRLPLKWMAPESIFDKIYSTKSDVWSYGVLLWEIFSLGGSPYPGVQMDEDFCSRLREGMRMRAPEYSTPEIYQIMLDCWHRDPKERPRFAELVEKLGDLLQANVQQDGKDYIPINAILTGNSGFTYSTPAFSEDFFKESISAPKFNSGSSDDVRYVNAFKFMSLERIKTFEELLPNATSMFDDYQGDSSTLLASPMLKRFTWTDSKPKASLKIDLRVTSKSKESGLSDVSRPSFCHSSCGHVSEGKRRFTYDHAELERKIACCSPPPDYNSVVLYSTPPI
Sequence of UniProt Q14012 (whole entry, looked up): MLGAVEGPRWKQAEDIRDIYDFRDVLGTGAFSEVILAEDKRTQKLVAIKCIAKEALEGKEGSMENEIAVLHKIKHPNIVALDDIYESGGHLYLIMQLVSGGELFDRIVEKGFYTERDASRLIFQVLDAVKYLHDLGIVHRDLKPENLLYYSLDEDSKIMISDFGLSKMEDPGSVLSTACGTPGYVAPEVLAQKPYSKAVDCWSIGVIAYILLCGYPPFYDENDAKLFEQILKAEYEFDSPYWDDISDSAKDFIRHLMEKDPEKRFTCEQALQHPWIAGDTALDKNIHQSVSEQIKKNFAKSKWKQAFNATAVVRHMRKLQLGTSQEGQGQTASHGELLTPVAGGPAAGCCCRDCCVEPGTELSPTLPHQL

Set 1
Host: human
Medium: microsomes or S9
Tested at: 2 µM
Time: 0.5 h
SMILES | remaining compound
CCOc1cc(CNC(C)c2ccccc2)ccc1OCC(C)C (stereo not drawn) | 55.5%
CC(Oc1ccc(Cl)cc1Cl)C(=O)NCCc1ccccc1 (stereo not drawn) | 46.4%
O=C(c1ccccc1)c1ccccc1C(=O)N1Cc2ccccc2C(C(=O)O)C1 (stereo not drawn) | 95.7%
COC(=O)C(O)c1cnc2c(c1-c1ccc(Cl)cc1)C(C)(C)CN(Cc1ccc(OC)cc1)C2=O (stereo not drawn) | 80.3%
O=C(CN(CCc1ccccc1)C(=O)CNS(=O)(=O)c1ccccc1)NCC1CCCO1 (stereo not drawn) | 7.69%
Clc1ccc(C2=NOC(COc3cccc(Cl)c3Cl)CC2n2cncn2)cc1 (stereo not drawn) | 74%
CC(Cn1cc(Br)cn1)c1nc2c3cnn(C)c3ncn2n1 (stereo not drawn) | 76.7%
COc1ccc(-c2c(-c3ccccc3)nn(-c3cccc4ccccc34)c2N(C)C)cc1OC | 33.4%
CN(C)C[C@@H]1CN(S(C)(=O)=O)C[C@H]1NC(=O)c1cccn1C | > 100%
CCOc1cc(=O)n2c(c1C(=O)NCc1ccc(F)cc1Cl)CCCC2 | 1.28%
CN(n1cnc2ccsc2c1=O)S(C)(=O)=O | > 99.9%
Cc1cc2c(cc1C(=O)N=C(N)N)C(Br)=CC(C)(C)O2 | 62%

Set 2
Target: Serine/threonine-protein kinase D3 (PRKD3, Homo sapiens, UniProt O94806)
Sequence of UniProt O94806 (whole entry, looked up): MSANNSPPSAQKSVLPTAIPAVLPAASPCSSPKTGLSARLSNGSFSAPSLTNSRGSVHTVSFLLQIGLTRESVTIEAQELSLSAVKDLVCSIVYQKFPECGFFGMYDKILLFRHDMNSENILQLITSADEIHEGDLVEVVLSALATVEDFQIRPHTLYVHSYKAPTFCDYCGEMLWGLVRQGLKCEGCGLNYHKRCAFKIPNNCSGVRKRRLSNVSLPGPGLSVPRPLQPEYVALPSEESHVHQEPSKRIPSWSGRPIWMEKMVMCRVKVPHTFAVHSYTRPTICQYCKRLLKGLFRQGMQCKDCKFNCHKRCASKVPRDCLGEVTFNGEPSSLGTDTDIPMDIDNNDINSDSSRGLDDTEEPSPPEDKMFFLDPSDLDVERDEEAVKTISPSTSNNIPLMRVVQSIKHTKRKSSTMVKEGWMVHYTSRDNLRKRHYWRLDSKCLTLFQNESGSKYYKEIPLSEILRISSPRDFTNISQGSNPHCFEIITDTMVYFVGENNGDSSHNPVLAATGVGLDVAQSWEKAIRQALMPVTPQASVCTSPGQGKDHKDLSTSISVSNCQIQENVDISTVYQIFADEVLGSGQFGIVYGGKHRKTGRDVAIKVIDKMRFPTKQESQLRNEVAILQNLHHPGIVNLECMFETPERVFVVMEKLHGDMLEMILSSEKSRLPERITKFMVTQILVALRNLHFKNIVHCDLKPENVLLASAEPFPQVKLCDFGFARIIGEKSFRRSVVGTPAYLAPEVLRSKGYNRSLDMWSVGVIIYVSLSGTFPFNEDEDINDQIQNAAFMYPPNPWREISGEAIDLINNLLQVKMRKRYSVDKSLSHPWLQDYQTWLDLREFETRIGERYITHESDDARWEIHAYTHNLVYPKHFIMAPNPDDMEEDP
Read-out: enzyme activity
Mode: inhibitor
Tested at: 0.5 µM
Baseline: control
Structure (SMILES) | remaining activity
COc1ccc(S(=O)(=O)N(CCO)c2ccccc2CN(C)CC=Cc2ccc(Cl)cc2)cc1 | 97.1%
Cc1cc(Nc2nc(-c3ccccc3)nc3ccccc23)n[nH]1 | 93.9%
CCc1[nH]c(-c2ccc(OC)cc2)nc1-c1ccncc1 | 97.1%
Nc1nc(Nc2ccc(S(N)(=O)=O)cc2)nn1C(=O)c1c(F)cccc1F | 55.6%
N#CC(=C(N)Sc1ccc(N)cc1)c1ccccc1C(F)(F)F | 96.8%
O=C1NC(=O)C(c2c[nH]c3ccccc23)=C1c1c[nH]c2ccccc12 | 88.4%
CC[n+]1c(/C=C/N(C)c2ccccc2)n(-c2ccccc2)c2ccc(-c3nc4ccccc4s3)cc21 | 97.4%
O=C1Cc2c([nH]c3ccc([N+](=O)[O-])cc23)-c2ccccc2N1 | 88.2%
Cc1cncc2cccc(S(=O)(=O)N3CCCN(C(=O)CN)C[C@@H]3C)c12 | 85.4%
CC#CC(=O)Nc1cc2c(Nc3ccc(F)c(Cl)c3)ncnc2cn1 | 103%
Fc1ccc(-c2nc3n(c2-c2ccncc2)CCS3)cc1 | 88.2%
NC(=O)c1ccc(N(C(N)=O)c2c(F)cccc2F)nc1-c1ccc(F)cc1F | 85.1%
CSc1nc(-c2ccnc(N[C@@H](C)c3ccccc3)c2)c(-c2ccc(F)cc2)[nH]1 (racemic) | 82%
Nc1ncnc2c1cnn2-c1ccccc1 | 87.3%
CC(C)(C)n1nc(Cc2cccc3ccccc23)c2c(N)ncnc21 | 20.9%
Nc1nccc(-c2c(-c3ccc(F)cc3)ncn2C2CCNCC2)n1 | 37.9%
Cc1ccc(NC2=CC(=O)c3sc(C)nc3C2=O)cc1 | 93.5%
Oc1ccc(Nc2nc(-c3ccc(Cl)cc3)cs2)cc1 | 97.7%
CCCC(=O)Oc1ccc2[nH]c(C(=O)c3cc4ccccc4[nH]3)cc2c1 | 102%
O=S(=O)(NCCNC/C=C/c1ccc(Br)cc1)c1cccc2cnccc12 | 79.2%
CC(=O)c1ccc(N2CCOCC2)cc1O | 98.4%

Set 3
Structure (SMILES): CC(=O)c1c(NS(C)(=O)=O)c2cc(-c3ccc(Cl)cc3)c(-c3ccc(Cl)cc3Cl)nc2n(C)c1=O
Read-out: cell-free assay
Technique: competition with immobilised ligand
Tested at: 1 µM
target | remaining binding [%]
Cyclin-dependent kinase 4, with cyclin D3 (CDK4, Homo sapiens, UniProt P11802) | 94
WEE2 (Homo sapiens, UniProt P0C1S8) | 100
DDR2 (Homo sapiens, UniProt Q16832) | 96
FLT3 (Homo sapiens, UniProt P36888) | 92
MAPKAPK5 (Homo sapiens, UniProt Q8IW41) | 89
CSNK1E (Homo sapiens, UniProt P49674) | 100
PDGFRB (Homo sapiens, UniProt P09619) | 95
CAMK2B (Homo sapiens, UniProt Q13554) | 100
CDK2 (Homo sapiens, UniProt P24941) | 100
FLT3 (Homo sapiens, UniProt P36888, D835Y) | 95
PIK3C3 (Homo sapiens, UniProt Q8NEB9) | 93
NEK4 (Homo sapiens, UniProt P51957) | 100
RIOK3 (Homo sapiens, UniProt O14730) | 96
HIPK3 (Homo sapiens, UniProt Q9H422) | 88
Ribosomal protein S6 kinase alpha-3, C-terminal kinase domain (RPS6KA3, Homo sapiens, UniProt P51812) | 100
EGFR (Homo sapiens, UniProt P00533, del747-752/P753S) | 90
FLT1 (Homo sapiens, UniProt P17948) | 100
PRKX (Homo sapiens, UniProt P51817) | 97
CLK2 (Homo sapiens, UniProt P49760) | 100
CAMK1 (Homo sapiens, UniProt Q14012) | 100
DAPK3 (Homo sapiens, UniProt O43293) | 100
CILK1 (Homo sapiens, UniProt Q9UPZ9) | 77
FLT3 (Homo sapiens, UniProt P36888, K663Q) | 100
TEC (Homo sapiens, UniProt P42680) | 100
NEK7 (Homo sapiens, UniProt Q8TDX7) | 100

Set 4
SMILES: O=C1CCC(N2Cc3cc(C4CCN(Cc5ccccc5)CC4)ccc3C2=O)C(=O)N1 (stereo not drawn)
Target: CRBN/Zinc finger protein Helios (Homo sapiens, UniProt Q96SW2+Q9UKS7)
Sequence of UniProt Q9UKS7 (whole entry, looked up): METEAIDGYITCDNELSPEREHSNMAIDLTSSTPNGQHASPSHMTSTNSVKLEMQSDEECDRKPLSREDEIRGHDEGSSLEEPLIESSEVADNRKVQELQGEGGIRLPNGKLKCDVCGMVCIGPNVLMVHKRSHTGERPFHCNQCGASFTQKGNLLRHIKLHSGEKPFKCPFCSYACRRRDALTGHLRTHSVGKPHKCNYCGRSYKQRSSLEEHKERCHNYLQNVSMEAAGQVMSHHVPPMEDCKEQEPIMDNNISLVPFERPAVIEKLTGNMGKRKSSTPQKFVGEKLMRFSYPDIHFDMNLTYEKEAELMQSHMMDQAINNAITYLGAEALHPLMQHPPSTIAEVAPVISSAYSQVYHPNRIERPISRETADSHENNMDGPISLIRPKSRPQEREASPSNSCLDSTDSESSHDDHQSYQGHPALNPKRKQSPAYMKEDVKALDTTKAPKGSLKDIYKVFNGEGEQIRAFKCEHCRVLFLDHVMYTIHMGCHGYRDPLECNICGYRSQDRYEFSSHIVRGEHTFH
Sequence of UniProt Q96SW2 (whole entry, looked up): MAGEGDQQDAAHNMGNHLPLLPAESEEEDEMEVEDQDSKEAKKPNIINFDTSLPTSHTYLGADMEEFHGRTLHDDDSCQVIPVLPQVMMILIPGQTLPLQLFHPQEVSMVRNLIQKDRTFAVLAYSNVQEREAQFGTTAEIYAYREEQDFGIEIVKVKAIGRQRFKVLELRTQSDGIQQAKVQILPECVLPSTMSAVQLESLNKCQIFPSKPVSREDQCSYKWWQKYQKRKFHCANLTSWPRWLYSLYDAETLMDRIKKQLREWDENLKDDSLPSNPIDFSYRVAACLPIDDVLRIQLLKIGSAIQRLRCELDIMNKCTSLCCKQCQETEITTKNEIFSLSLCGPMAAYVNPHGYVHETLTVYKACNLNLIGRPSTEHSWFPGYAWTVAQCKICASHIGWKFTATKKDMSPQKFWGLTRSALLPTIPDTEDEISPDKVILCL
Mode: degrader
Cell line: HEK293
assay | setting | protein remaining
HiBiT | 4.115 nM | 49.5%
HiBiT | 37.04 nM, 6 h | 42.9%
HiBiT kinetics | 4.115 nM, 3 h | 54.6%
HiBiT | 0.4572 nM | 81.8%
HiBiT kinetics | 12.35 nM, 1 h | 84.6%
HiBiT kinetics | 333.3 nM, 3 h | 29.4%
HiBiT | 0.01694 nM | 92.6%
HiBiT | 1.372 nM, 6 h | 70%
HiBiT | 1.372 nM | 70%
HiBiT kinetics | 4.115 nM, 1 h | 83.9%
HiBiT | 0.05081 nM, 6 h | 101%
HiBiT | 4.115 nM, 6 h | 49.5%
HiBiT kinetics | 1.372 nM, 1 h | 84.4%
HiBiT kinetics | 333.3 nM, 0.5 h | 82.9%
HiBiT kinetics | 1000 nM, 0.5 h | 85.8%
HiBiT kinetics | 4.115 nM, 0.5 h | 96.5%
HiBiT | 0.01694 nM, 6 h | 92.6%
